Measurements gathered from unrelated publications.
Protocols differ between the studies behind these lines.

`Cc1c(Cl)c(C)[n+]([O-])c(Cl)c1-c1noc(-c2cc(O)c(O)c([N+](=O)[O-])c2)n1` — result for “adverse event incidence”: 0% (measured: Severe severity; healthy Caucasian subjects; oral, 25 mg).
For `CC(=O)O[C@H]1C(=O)[C@@]2(C)[C@H]([C@H](OC(=O)c3ccccc3)[C@]3(O)C[C@H](OC(=O)[C@H](O)[C@@H](NC(=O)c4ccccc4)c4ccccc4)C(C)=C1C3(C)C)[C@]1(OC(C)=O)CO[C@@H]1C[C@@H]2O`, “adverse event incidence” read 28% (measured: Dysgeusia; patients with advanced solid tumours; intravenous, dose not given, all grades, possibly related to drug).
For `CC(C)n1c(Nc2cccnc2)nc2cnc(Nc3ccc(N4CCN(C)CC4)cc3)nc21`, “adverse event incidence” read 0% (measured: Hypertriglyceridaemia; healthy male subjects; oral, 150 mg, with: rifampin).
Under “adverse event incidence”, `FC(F)(F)c1ccc(CNc2ccc(Cc3c[nH]c4ncc(Cl)cc34)cn2)cn1` is recorded as 33% (measured: Anaemia; patients with advanced solid tumours; oral, dose not given, all grades, possibly related to drug).
`CC[C@H](C)CCCCC(=O)N[C@@H](CCN)C(=O)N[C@H](C(=O)N[C@@H](CCN)C(=O)N[C@H]1CCNC(=O)[C@H]([C@@H](C)O)NC(=O)[C@H](CCN)NC(=O)[C@H](CCN)NC(=O)[C@H](CC(C)C)NC(=O)[C@@H](Cc2ccccc2)NC(=O)[C@H](CCN)NC1=O)[C@@H](C)O` — result for “adverse event incidence”: 75% (measured: gastrointestinal disorders; normal renal function; intravenous, 0.75 mg/kg).
Under “adverse event incidence”, `O=C1CCc2ccc(OCCCCN3CCN(c4cccc(Cl)c4Cl)CC3)cc2N1` is recorded as 0.9% (measured: Constipation; patients, CYP2D6 normal metabolizers; dose not given, long-acting oral or depot).
`NCCONC(=O)[C@@H]1CC[C@@H]2CN1C(=O)N2OS(=O)(=O)O` — result for “adverse event incidence”: 0% (measured: upper respiratory tract infection; healthy Chinese men; intravenous, 2 g, treatment-emergent).
`Cc1c(C(=O)O)ccc2c3n(nc12)[C@@H]1[C@H](C3)N(CC2CC2)[C@@]2(C(=O)Nc3cc(Cl)ccc32)[C@H]1c1cccc(Cl)c1F` — result for “adverse event incidence”: 59.3% (phase Ia trial, measured: Fatigue; cancer patients; oral, dose not given, all patients all grades).
